Assay results gathered from unrelated publications.
Protocols differ between the studies behind these lines. Numbers after ± are the reported error.

SMILES | cell line | observed | method | time | setting | CC50
Cc1ccc(COP(=O)(O)Oc2c3c(c(OP(=O)(O)OCc4ccc(C)cc4)c4c2C2CC4c4cc5c(cc42)C2CC5c4ccccc42)C2CC3c3cc4c(cc32)C2CC4c3ccccc32)cc1 | Caco-2 | – | CellTiter-Glo | 2 days | – | 77.4 µM
COc1ccccc1CNC(=O)CSc1c[nH]c2ccccc12 | A549 | cell viability | – | – | – | 76.2 µM
CCN(CC)CCCC(C)Nc1c2cc(OC)ccc2nc2ccc(C(F)(F)F)cc12 (stereo not drawn) | U2OS-ACE2-GFP | – | – | 20 (unit not given) | – | 7.26 µM
C=CCCOP(=O)(O)Oc1c2c(c(OP(=O)(O)OCCC=C)c3c1C1CC3c3cc4c(cc31)C1CC4c3ccccc31)C1CC2c2cc3c(cc21)C1CC3c2ccccc21 | Caco-2 | – | CellTiter-Glo | 2 days | – | 185 µM
O=S(=O)(c1ccc(Cl)cc1)N1CCCC2=CC3CC(CN4CCCCC34)C21 (stereo not drawn) | Huh-7 | cytotoxicity | – | – | – | > 267 µM
O=C(CCNC(=O)c1ccc(OC(F)(F)F)cc1)N[C@@H]1CCCc2ccccc21 | Calu-3 | cell growth or viability | – | 72 h | – | 91 µM
C1=[N+]2CCCC[N+]3=Cc4ccc5[n]4[Au-]23[n]2c1ccc2-c1nc2ccccc2nc1-5.F[P-](F)(F)(F)(F)F | colon cancer cell lines | – | – | – | NCI60 panel mean | 89 µM
CCN(CC)CCCC(C)Nc1c2ccc(Cl)cc2nc2ccc(OC)nc12 (stereo not drawn) | U2OS-ACE2-GFP | – | – | 20 (unit not given) | – | 8.25 µM
CC[C@H](C)[C@H](NC(=O)[C@H](CCCCN)NC(=O)[C@H](CC(N)=O)NC(=O)[C@H](Cc1c[nH]c2ccccc12)NC(=O)[C@H](Cc1ccccc1)NC(=O)[C@H](CCCCN)NC(=O)[C@H](CCCCNC(=N)N)NC(=O)[C@H](CC(C)C)NC(=O)[C@H](Cc1c[nH]c2ccccc12)NC(=O)[C@H](CCCCN)NC(=O)[C@H](CCCCNC(=N)N)NC(=O)[C@H](CC(C)C)NC(=O)CNC(C)=O)C(=O)N[C@@H](CCCCN)C(=O)N[C@@H](CCCCNC(=N)N)C(N)=O | T cells | – | CCK-8 | 24 h | – | 31 µM
CCCC[C@@H](O)C[C@@H](C)C[C@H](NC(=O)[C@@H]1C[C@H](C)CN1C(=O)/C=C/[C@@H](C)CC)C(=O)N[C@H](C(=O)NC(C)(C)C(=O)N[C@@H](CC(C)C)C(=O)N[C@@H](CC(C)C)C(=O)NC(C)(C)C(=O)NC(C)(C)C(=O)NCCC(=O)N[C@@H](C)CN(C)C)[C@H](O)C(C)C | C2C12 | cell growth or viability | imaging | 72 h | – | > 1.5 µM
Cc1ccc(NCCN(C)CCNc2ccnc3cc(Cl)ccc23)c2c(=O)c3ccccc3sc12 | Vero E6, HeLa, HEK293T, Huh7.5 | – | nuclei count | 16 h | mean of four cell lines | > 25 µM
CC(C)OC(=O)C(C)NP(=O)(OCC1OC(n2ccc(=O)[nH]c2=O)C(F)(Cl)C1O)Oc1ccccc1 (stereo not drawn) | Huh-7 | – | MTS | 4 days | – | > 100 µM
C=C(C)[C@@H]1CC[C@]2(CO)CC[C@]3(C)[C@H](CC[C@@H]4[C@@]5(C)CCCNC(C)(C)[C@@H]5CC[C@]43C)[C@@H]12 | HFF primary foreskin fibroblasts | cell viability | CellTiter-Glo | – | – | 18.7 µM
COc1ccc2nc3ccc(Cl)cc3c(Nc3cc(CN4CCCC4)c(O)c(CN4CCCC4)c3)c2c1 | U2OS-ACE2-GFP | – | – | 20 (unit not given) | – | 5.19 µM
C=C1C(=O)OC2C1CCC(Cn1cc(-c3cc(C(F)(F)F)cc(C(F)(F)F)c3)nn1)=C1CCC(C)(O)C12 (stereo not drawn) | MV4-11 | cell viability | alamarBlue | 24 h | – | 1.2 ± 0.5 µM
O=C(CCN(CCC(=O)N[C@@H](Cc1c[nH]c2ccccc12)C(=O)O)C(=O)CCN(CCC(=O)N(CCC(=O)N[C@@H](Cc1c[nH]c2ccccc12)C(=O)O)CCC(=O)N[C@@H](Cc1c[nH]c2ccccc12)C(=O)O)C(=O)CCC(CCC(=O)N(CCC(=O)N(CCC(=O)N[C@@H](Cc1c[nH]c2ccccc12)C(=O)O)CCC(=O)N[C@@H](Cc1c[nH]c2ccccc12)C(=O)O)CCC(=O)N(CCC(=O)N[C@@H](Cc1c[nH]c2ccccc12)C(=O)O)CCC(=O)N[C@@H](Cc1c[nH]c2ccccc12)C(=O)O)(CCC(=O)N(CCC(=O)N(CCC(=O)N[C@@H](Cc1c[nH]c2ccccc12)C(=O)O)CCC(=O)N[C@@H](Cc1c[nH]c2ccccc12)C(=O)O)CCC(=O)N(CCC(=O)N[C@@H](Cc1c[nH]c2ccccc12)C(=O)O)CCC(=O)N[C@@H](Cc1c[nH]c2ccccc12)C(=O)O)[N+](=O)[O-])N[C@@H](Cc1c[nH]c2ccccc12)C(=O)O | MT4 | – | – | – | – | > 100 µM
C1CCCCCC2(CCCCC1)OOCCCOO2 | PLC-PRF-5 | cell growth or viability | MTS | 72 h | – | 59 µM
[N-]=[N+]=NCCOP(=O)(O)Oc1c2c(c(OP(=O)(O)OCCN=[N+]=[N-])c3c1C1CC3c3cc4c(cc31)C1CC4c3ccccc31)C1CC2c2cc3c(cc21)C1CC3c2ccccc21 | Caco-2 | – | CellTiter-Glo | 2 days | – | > 300 µM
O=C(CN1CCCC2=CC3CC(CN4CCCCC34)C21)Nc1ccc(Br)c(C(F)(F)F)c1 (stereo not drawn) | Huh-7 | cytotoxicity | – | – | – | 38.3 µM
COc1cc2c3cc1Oc1cc(ccc1O)CC1c4c(cc(OC)c(O)c4Oc4ccc(cc4)CC3N(C)CC2)CCN1C (stereo not drawn) | Huh-7 | cell growth or viability | MTT | 24 h | – | 62.8 µM
CC[C@H](C)/C=C/C(=O)N1C[C@@H](C)C[C@H]1C(=O)N[C@@H](CC(C)C)C(=O)N[C@H](C(=O)NC(C)(C)C(=O)N[C@@H](CC(C)C)C(=O)N[C@@H](CC(C)C)C(=O)NC(C)(C)C(=O)NC(C)(C)C(=O)NCCC(=O)N[C@@H](C)CNC)[C@H](O)C(C)C | C2C12 | cell growth or viability | imaging | 72 h | – | > 1.5 µM

SMILES | cell line | observed | method | time | setting | CC50
CC[C@H](C)[C@@H]1NC(=O)[C@H](CCCCN)NC(=O)[C@H](CCCCN)NC(=O)[C@H](Cc2ccc(O)cc2)NC(=O)[C@H](CC(C)C)NC(=O)[C@@H]2CCCN2C(=O)[C@H](C)NC(=O)CNC(=O)CNC(=O)[C@H](CO)NC(=O)CNC(=O)CNC(=O)[C@H](CO)NC(=O)[C@H](CCC(=O)O)NC(=O)[C@H](CC(C)C)NC(=O)[C@H](CC(C)C)NC(=O)[C@H](CCCCN)NC(=O)[C@H](CCCCN)NC(=O)[C@H]([C@@H](C)CC)NC(=O)[C@H]([C@@H](C)CC)NC(=O)[C@H](CCCCN)NC(=O)[C@H](CCCCN)NC(=O)[C@H](Cc2ccc(O)cc2)NC(=O)[C@H](CC(C)C)NC(=O)[C@@H]2CCCN2C(=O)CNC(=O)CNC(=O)CSC[C@@H](C(N)=O)NC(=O)[C@H](CC(C)C)NC(=O)[C@H](CCCCN)NC(=O)[C@H](CCCCN)NC(=O)[C@H]([C@@H](C)CC)NC1=O | K562 | – | resazurin | 24 h | – | 2.8 ± 0.2 µM
O=C1Nc2ccc(Cl)cc2C1=Cc1c(Cl)[nH]c2c1ccc1ccccc12 | NCI-60 cell panel | – | – | 48 h | panel mean | 51.3 µM
O=C(CN1CCCC2=CC3CC(CN4CCCCC34)C21)Nc1cc(Cl)cc(OC(F)(F)F)c1 (stereo not drawn) | Huh-7 | cytotoxicity | – | – | – | 62.8 µM
C#CCOP(=O)(O)Oc1c2c(c(OP(=O)(O)OCC#C)c3c1C1CC3c3cc4c(cc31)C1CC4c3ccccc31)C1CC2c2cc3c(cc21)C1CC3c2ccccc21 | Caco-2 | – | CellTiter-Glo | 2 days | – | 184 µM
C#CCCC1(CCCNC(=O)CCOCCOc2ccc(-c3cnc4c(C#Cc5cccnc5)snc4c3)cc2)N=N1 | human cells | – | – | 24 (unit not given) | – | > 20 µM
Oc1ccc(Nc2c3ccc(Cl)cc3nc3ccc(Cl)cc23)cc1CN1CCCC1 | U2OS-ACE2-GFP | – | – | 20 (unit not given) | – | 19.3 µM
CCC(C)OP(=O)(O)Oc1c2c(c(OP(=O)(O)OC(C)CC)c3c1C1CC3c3cc4c(cc31)C1CC4c3ccccc31)C1CC2c2cc3c(cc21)C1CC3c2ccccc21 (stereo not drawn) | Caco-2 | – | CellTiter-Glo | 2 days | – | 274 µM
CC(C)C[C@H](NC(=O)[C@H](Cc1c[nH]cn1)NC(=O)[C@H](Cc1ccc(O)cc1)NC(=O)[C@H](CCCNC(=N)N)NC(=O)[C@H](Cc1ccc(O)cc1)NC(=O)[C@H](CCCCN)NC(=O)[C@@H](N)CCCCN)C(=O)N[C@@H](CCCCN)C(=O)N1CCC[C@H]1C(=O)N[C@@H](Cc1ccccc1)C(=O)NCCCC[C@H](NC(=O)[C@H](Cc1ccccc1)NC(=O)[C@@H]1CCCN1C(=O)[C@H](CCCCN)NC(=O)[C@H](CC(C)C)NC(=O)[C@H](Cc1c[nH]cn1)NC(=O)[C@H](Cc1ccc(O)cc1)NC(=O)[C@H](CCCNC(=N)N)NC(=O)[C@H](Cc1ccc(O)cc1)NC(=O)[C@H](CCCCN)NC(=O)[C@@H](N)CCCCN)C(N)=O | Swiss mouse peritoneal macrophages | – | MTT | – | – | > 2000 µM
CC[C@H](C)[C@H](NC(=O)[C@H](CCCCN)NC(=O)[C@H](CC(N)=O)NC(=O)[C@H](Cc1ccccc1)NC(=O)[C@H](Cc1ccccc1)NC(=O)[C@H](CCCCN)NC(=O)[C@H](CCCNC(=N)N)NC(=O)[C@H](CC(C)C)NC(=O)[C@H](CCCNC(=N)N)NC(=O)[C@H](CCCCN)NC(=O)[C@H](CCCNC(=N)N)NC(=O)[C@H](CC(C)C)NC(=O)CNC(C)=O)C(=O)N[C@@H](CCCCN)C(=O)N[C@@H](Cc1ccccc1)C(N)=O | T cells | – | CCK-8 | 24 h | – | 352 µM
O=C(CNc1cccc(F)c1)N1CCCC2=CC3CC(CN4CCCCC34)C21 (stereo not drawn) | Huh-7 | cytotoxicity | – | – | – | > 267 µM
CC(C)C1=C[C@@]23CC[C@@H]4[C@](C)(CCC[C@@]4(C)C(=O)OCC#CCN4CCOCC4)[C@H]2C[C@@H]1[C@H]1C(=O)CCC(=O)[C@H]13 | MDCK | cytotoxicity | MTT | 48 h | – | 20.8 µM
CCCCCCC1O[C@@H]2C[C@H]3[C@@H]4CCC5=CC(=O)C=C[C@]5(C)[C@H]4[C@@H](O)C[C@]3(C)[C@]2(C(=O)CO)O1 (stereo partly drawn) | human cells | – | – | – | – | > 30 µM
COc1ccc2nc3ccc(C(F)(F)F)cc3c(Nc3ccc(O)c(CN4CCCC4)c3)c2c1 | U2OS-ACE2-GFP | – | – | 20 (unit not given) | – | 10.1 µM
O=S(=O)(c1ccc(Cl)c(Cl)c1)N1CCCC2=CC3CC(CN4CCCCC34)C21 (stereo not drawn) | Huh-7 | cytotoxicity | – | – | – | > 267 µM
CC(C)OP(=O)(O)Oc1c2c(c(OP(=O)(O)OC(C)C)c3c1C1CC3c3cc4c(cc31)C1CC4c3ccccc31)C1CC2c2cc3c(cc21)C1CC3c2ccccc21 | Caco-2 | – | CellTiter-Glo | 2 days | – | 291 µM
Cc1ccccc1CN1CCCC2=CC3CC(CN4CCCCC34)C21 (stereo not drawn) | Huh-7 | cytotoxicity | – | – | – | > 267 µM
CC(C)(C)SSc1ccccc1CCOP1(=O)OC[C@H]2O[C@@H](n3ccc(=O)[nH]c3=O)[C@](C)(F)[C@@H]2O1 (stereo partly drawn) | Huh-7 | – | MTS | 4 days | – | 2.9 µM
O=S(=O)(c1cc(Cl)cc(Cl)c1)N1CCCC2=CC3CC(CN4CCCCC34)C21 (stereo not drawn) | Huh-7 | cytotoxicity | – | – | – | > 267 µM
COc1ccc2nc3cc(Cl)ccc3c(N3CCOCC3)c2c1 | U2OS-ACE2-GFP | – | – | 20 (unit not given) | – | > 50 µM
CC[C@H](C)[C@H](NC(=O)[C@H](CCCN)NC(=O)[C@H](CC(N)=O)NC(=O)[C@H](Cc1c[nH]c2ccccc12)NC(=O)[C@H](Cc1ccccc1)NC(=O)[C@H](CCCN)NC(=O)[C@H](CCCCNC(=N)N)NC(=O)[C@H](CC(C)C)NC(=O)[C@H](Cc1c[nH]c2ccccc12)NC(=O)[C@H](CCCN)NC(=O)[C@H](CCCCNC(=N)N)NC(=O)[C@H](CC(C)C)NC(=O)CNC(C)=O)C(=O)N[C@@H](CCCN)C(=O)N[C@@H](CCCCNC(=N)N)C(N)=O | T cells | – | CCK-8 | 24 h | – | 43.1 µM
O=C(c1ccc(Cl)cc1)N1CCCC2=CC3CC(CN4CCCCC34)C21 (stereo not drawn) | Huh-7 | cytotoxicity | – | – | – | > 267 µM
